Experimental data of several laboratories.
Compare with care: the assays were run in different laboratories. “And” joins repeats or separate records; there may be more than shown. ± gives the spread as reported.
UniProt Q06187, sequence (whole entry, looked up): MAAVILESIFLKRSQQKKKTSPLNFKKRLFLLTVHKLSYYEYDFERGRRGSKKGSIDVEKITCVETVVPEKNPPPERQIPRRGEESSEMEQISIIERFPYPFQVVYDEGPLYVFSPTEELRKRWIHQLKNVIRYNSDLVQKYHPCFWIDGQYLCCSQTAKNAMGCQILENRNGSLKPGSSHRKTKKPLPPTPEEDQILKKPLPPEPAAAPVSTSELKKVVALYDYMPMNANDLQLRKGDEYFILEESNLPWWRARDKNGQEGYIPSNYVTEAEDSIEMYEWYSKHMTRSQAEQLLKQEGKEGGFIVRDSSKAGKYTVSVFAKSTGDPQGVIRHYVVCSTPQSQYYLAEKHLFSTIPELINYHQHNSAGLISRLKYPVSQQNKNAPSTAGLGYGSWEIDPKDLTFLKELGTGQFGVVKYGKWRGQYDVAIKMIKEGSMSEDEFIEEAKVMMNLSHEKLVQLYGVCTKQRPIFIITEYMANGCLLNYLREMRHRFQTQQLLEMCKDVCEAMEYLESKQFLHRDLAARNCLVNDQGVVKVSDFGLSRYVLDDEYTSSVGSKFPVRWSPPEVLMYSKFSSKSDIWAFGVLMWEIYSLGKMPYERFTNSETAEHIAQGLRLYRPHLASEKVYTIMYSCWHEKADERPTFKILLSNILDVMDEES
UniProt Q92918, sequence (whole entry, looked up): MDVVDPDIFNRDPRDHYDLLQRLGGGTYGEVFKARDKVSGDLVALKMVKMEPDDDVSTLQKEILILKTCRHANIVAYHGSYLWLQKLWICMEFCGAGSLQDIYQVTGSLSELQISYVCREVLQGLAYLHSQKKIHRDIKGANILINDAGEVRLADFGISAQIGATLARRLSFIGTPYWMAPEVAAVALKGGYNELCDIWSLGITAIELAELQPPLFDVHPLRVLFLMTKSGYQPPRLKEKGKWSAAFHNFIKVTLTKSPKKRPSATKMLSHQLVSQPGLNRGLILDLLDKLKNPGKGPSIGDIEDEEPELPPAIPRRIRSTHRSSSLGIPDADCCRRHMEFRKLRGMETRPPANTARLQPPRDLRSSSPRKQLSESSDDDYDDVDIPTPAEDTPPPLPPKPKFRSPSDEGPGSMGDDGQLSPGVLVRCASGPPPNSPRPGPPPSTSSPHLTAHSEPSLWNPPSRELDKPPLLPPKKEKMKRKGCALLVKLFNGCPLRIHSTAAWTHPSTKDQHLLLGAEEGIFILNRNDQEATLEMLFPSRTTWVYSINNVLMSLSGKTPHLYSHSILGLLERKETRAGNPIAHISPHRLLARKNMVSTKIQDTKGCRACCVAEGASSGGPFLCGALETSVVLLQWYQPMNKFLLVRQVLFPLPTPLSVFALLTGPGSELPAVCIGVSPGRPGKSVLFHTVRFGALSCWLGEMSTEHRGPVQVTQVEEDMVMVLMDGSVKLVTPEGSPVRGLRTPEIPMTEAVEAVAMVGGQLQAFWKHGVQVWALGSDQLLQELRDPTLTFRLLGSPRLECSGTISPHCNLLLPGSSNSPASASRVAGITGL

N=C(N)NCCC[C@H](NC(=O)[C@H](CCCNC(=N)N)NC(=O)[C@H](CCCNC(=N)N)NC(=O)[C@H](CCC(N)=O)NC(=O)[C@H](CCCNC(=N)N)NC(=O)[C@H](CCCNC(=N)N)NC(=O)[C@H](CCCCN)NC(=O)[C@H](CCCCN)NC(=O)[C@H](CCCNC(=N)N)NC(=O)CNC(=O)[C@H](Cc1ccc(O)cc1)NC(=O)[C@H](Cc1ccccc1)NC(=O)[C@H](Cc1ccccc1)NC(=O)[C@H](Cc1ccccc1)NC(=O)Cc1ccc2ccccc2c1)C(=O)O  HC10 (human red blood cells; hemolysis; minimum concentration causing 10% hemolysis): > 64 µM
CC[C@H](C)[C@H](NC(=O)[C@@H](NC(=O)[C@H](C)NC(=O)[C@H](C)NC(=O)[C@H](CCC(N)=O)NC(=O)CNC(=O)[C@@H](NC(=O)[C@@H](NC(=O)[C@H](C)NC(=O)[C@@H](NC(=O)[C@H](C)NC(=O)[C@@H]1CCCN1C(=O)CNC(=O)[C@H](C)NC(=O)[C@H](CCCCN)NC(=O)[C@@H](NC(=O)[C@@H](NC(=O)CNC(=O)[C@H](CC(=O)O)NC(=O)[C@H](CCCNC(=N)N)NC(=O)[C@@H](NC(=O)[C@H](CC(N)=O)NC(=O)[C@H](CCC(N)=O)NC(=O)CNC(=O)[C@@H](NC(=O)[C@H](CCCCN)NC(=O)[C@H](CCC(=O)O)NC(=O)[C@@H](NC(=O)[C@H](CCCCN)NC(=O)[C@H](CCCCN)NC(=O)[C@H](Cc1ccccc1)NC(=O)[C@@H](NC(=O)[C@H](CCCCN)NC(=O)[C@H](Cc1c[nH]c2ccccc12)NC(=O)[C@@H](N)CCCNC(=N)N)[C@@H](C)CC)[C@@H](C)CC)C(C)C)[C@@H](C)CC)[C@@H](C)CC)C(C)C)C(C)C)C(C)C)C(C)C)[C@@H](C)O)C(N)=O  cytotoxicity (MX1; CCK-8; 8 µM, 24 h, 1% FBS): not toxic
C[C@@H]1O[C@@H](O[C@@H]2[C@@H](O)[C@H](O)[C@@H](CO)O[C@H]2c2c(O)cc(O)c3c(=O)cc(-c4ccc(O)cc4)oc23)[C@H](O)[C@H](O)[C@H]1O  viability (Caco-2; CCK-8; 0.625 µM, 24 h): 105%
CC(C)[C@H]1NC(=O)[C@H](Cc2ccccc2)NC(=O)[C@@H](C(C)C)NC(=O)[C@@H](C)NC(=O)[C@H](CO)NC(=O)[C@@H](Cc2c(-c3ccc(-c4ccc5ccccc5c4)cc3)[nH]c3ccccc23)NC(=O)[C@@H](CO)NC1=O  cytotoxicity (RAW264.7; MTT; 50 µM, 24 h): not toxic
COc1ccc(CCNC2CCCc3c2[nH]c2ccc(C)cc32)cc1 (stereo not shown)  non-viable cells (A549; 50 µM, 23 h): 2.2 ± 2.5%
CC(C)(C)C(=O)OCOP(=O)(OCOC(=O)C(C)(C)C)C1CCCN(O)C1=O (stereo not shown)  log LC50 (T47D): > -4 log M
CN(C)[C@H]1C[C@@]23CC[C@@]4(O2)C(=CC[C@]2(C)[C@@H](c5ccc6ccncc6c5)CC[C@H]24)C=C3[C@@H](O)[C@@H]1O  inhibition (MAP4K1 (Homo sapiens, UniProt Q92918); ATP probe labelling, inhibitor, KiNativ profiling; 0.1 µM): -1.6%
Fc1cccc(COc2ccc(Nc3ncnc4ccc(-c5ccc(CN6CCCCC6)cc5)cc34)cc2Cl)c1  TC50 (NIH 3T3; PrestoBlue; 96 h): 12.8 µM
Cc1cc(C(=O)Nc2nc3cccc(C)c3n2[C@H]2CCCCN(C(=O)/C=C/CN(C)C)C2)ccn1  multinucleated cells (Trypanosoma brucei; propidium iodide flow cytometry; bloodstream form; concentration not given, 72 h): 13.4%
CNC(=O)C[C@H](Cc1ccncc1)NC(=O)[C@@H](Cc1cccc(Br)c1)NC(=O)[C@@H](N)Cc1cccc(F)c1  viability (Huh-7-ACE2; CellTiter-Glo; 0.000763 µM, 48 h, unit not given; relative to: DMSO): 1.02 and 1.06
CS(C)(=O)=Nc1ccc(-c2ccc(-c3nc4cc(O[C@@H]5CO[C@H]6[C@@H]5OC[C@H]6O)[nH]c4cc3F)cc2)cc1  inhibition (BTK (Homo sapiens, UniProt Q06187); enzyme activity, inhibitor; 10 µM): 3%
CNC(=O)C[C@H](Cc1ccccc1)NC(=O)[C@@H](Cc1ccc(Cl)cc1Cl)NC(=O)[C@H](N)Cc1ccccc1C#N  viability (Huh-7-ACE2; CellTiter-Glo; 0.195 µM, 48 h, unit not given; relative to: DMSO): 1 and 1.06 and 1.07
CC(C)C[C@@H]1NC(=O)C(C)(C)NC(=O)[C@@H]2CCCN2C(=O)[C@H](C(C)C)NC(=O)[C@H](Cc2ccccc2)NC(=O)CSCCNC(=O)[C@H](Cc2ccccc2)N(C)C(=O)[C@H](CC(C)C)NC(=O)[C@H](Cc2cccc3ccccc23)NC1=O  Papp A→B (LLC-PK1; Caco-2): 0.01 ×10⁻⁶ cm/s
CCOc1ccc(CN2CC[C@H]2C(=O)NC)cc1-c1cccc(C(=O)NC[C@@H]2COC(C)(C)O2)c1  viability (Huh-7-ACE2; CellTiter-Glo; 0.000191 µM, 48 h, unit not given; relative to: DMSO): 1.01 and 0.99 and 1.09
CC[C@H](C)[C@H](NC(=O)[C@H](C)NC(=O)CNC(=O)[C@H](Cc1ccccc1)NC(=O)[C@H](CC(N)=O)NC(=O)[C@H](CC(N)=O)NC(=O)[C@H](CO[C@@H]1O[C@H](CO)[C@@H](O)[C@H](O)[C@H]1NC(C)=O)NC(=O)[C@H](CO)NC(=O)[C@H](Cc1c[nH]cn1)NC(=O)[C@@H](NC(=O)[C@H](CC(C)C)NC(=O)[C@H](Cc1ccccc1)NC(=O)[C@H](CC(N)=O)NC(=O)[C@H](C)NC(=O)[C@@H](N)CC(C)C)C(C)C)C(=O)N[C@@H](CC(C)C)C(N)=O  IAPP cytotoxicity (INS-1; MTT; concentration not given, 24 h, together with: 1 µM hIAPP): decreased
CC(=O)O[C@H]1OC[C@@H]2C=C([C@@]3(C)CCCC(C)(C)C3)CC[C@H]12  viability decrease (primary human T lymphocytes; MTT; 0.1 µM, 48 h, 10% FBS): 15 to 25%
CC[C@H](C)[C@@H]1NC(=O)[C@H](C(C)C)NC(=O)[C@H](C(C)C)NC(=O)[C@H](CC(C)C)NC(=O)C[C@@H](C(=O)N[C@@H](Cc2c[nH]c3ccccc23)C(=O)N[C@@H](CC(N)=O)C(=O)N[C@@H](C)C(=O)N2CCC[C@H]2C(=O)NCC(=O)N[C@@H](Cc2c[nH]c3ccccc23)C(=O)N[C@@H](Cc2ccccc2)C(=O)O)NC(=O)[C@H](C)NC(=O)[C@H](CCC(N)=O)NC(=O)[C@H](C(C)C)NC1=O  cytotoxicity (A549; 10 µM): not toxic
O=C1NC2(CC2)COc2ncc(F)cc2[C@H]2COCCN2c2ccn3ncc1c3n2  serum total protein (Sprague-Dawley rat, male, serum; oral, 2.5 mg/kg/day, end of treatment, 4-week subacute toxicity): 56.2 ± 2.1 g/L
COc1ccccc1-c1n[nH]c2nc(NC3CCN(C(=O)Cc4ccc(F)cc4F)CC3)ncc12  relative abundance (bead binding, competition bead pull-down, item: LINJ.29.0790; Leishmania donovani extract; 10 µM; relative to: vehicle): 1.02

For quick reference, copied from above:
CC[C@H](C)[C@H](NC(=O)[C@H](C)NC(=O)CNC(=O)[C@H](Cc1ccccc1)NC(=O)[C@H](CC(N)=O)NC(=O)[C@H](CC(N)=O)NC(=O)[C@H](CO[C@@H]1O[C@H](CO)[C@@H](O)[C@H](O)[C@H]1NC(C)=O)NC(=O)[C@H](CO)NC(=O)[C@H](Cc1c[nH]cn1)NC(=O)[C@@H](NC(=O)[C@H](CC(C)C)NC(=O)[C@H](Cc1ccccc1)NC(=O)[C@H](CC(N)=O)NC(=O)[C@H](C)NC(=O)[C@@H](N)CC(C)C)C(C)C)C(=O)N[C@@H](CC(C)C)C(N)=O  IAPP cytotoxicity (INS-1; MTT; concentration not given, 24 h, together with: 1 µM hIAPP): decreased
CC(=O)O[C@H]1OC[C@@H]2C=C([C@@]3(C)CCCC(C)(C)C3)CC[C@H]12  viability decrease (primary human T lymphocytes; MTT; 0.1 µM, 48 h, 10% FBS): 15 to 25%
